Published values of several laboratories.
Protocols differ between the studies behind these lines. Numbers after ± are the reported error.
rep main protease: Replicase polyprotein 1ab, main protease (rep, Severe acute respiratory syndrome coronavirus 2, UniProt P0DTD1)

CNC(=O)[C@@H](NC(=O)[C@H](CC(C)C)[C@H](O)C(=O)NO)C(C)(C)C — viability difference (C2C12; 10 µM, added: MP venom; relative to: venom alone): 41.8%
CC(C)(F)C[C@H](N[C@@H](c1ccc(-c2ccc(S(C)(=O)=O)cc2)cc1)C(F)(F)F)C(=O)NC1(C#N)CC1 — inhibition (rep main protease; reporter gene (Gaussia luciferase), inhibitor; 20 µM): -0.175%
CN(C)CC[C@H](CSc1ccccc1)Nc1ccc(S(=O)(=O)NC(=O)c2ccc(N3CCN(Cc4ccccc4-c4ccc(Cl)cc4)CC3)cc2)cc1[N+](=O)[O-] — anti-apoptotic effect (HMEC; 5 µM, pre-treatment, added: staurosporine): no effect
O=P(Oc1ccccc1)(Oc1ccccc1)Oc1ccccc1 — ID50 (ES-D3; cardiomyocyte differentiation, embryonic stem cell test; day 10, exposure from day 3; 50% inhibition of beating): 143000 nM
CC[C@H](C)[C@H]1C(=O)N2CCC[C@H]2C(=O)O[C@H](C(C)(C)C)C[C@@H](C)C[C@H](O)[C@H](C)C2=N[C@@H](CCC(=O)N[C@@H](Cc3ccc(OC)cc3)C(=O)N(C)[C@@H](C)C(=O)N1C)CS2 — number of affected cytokines (RAW264.7; cytokine secretion; concentration not given, 4 h preincubation, of 48 cytokines tested, added: LPS 1 µg/mL for 8 h): 43
Nc1ncnc2c1ncn2[C@@H]1O[C@@H]2COP(=O)(O)O[C@H]3[C@@H](O)[C@H](n4cnc5c(=O)[nH]cnc54)O[C@@H]3COP(=O)(O)O[C@H]2[C@H]1O — pathway fold enrichment (HFF-1; RNA sequencing, item: Class A/1 receptors; upregulated pathway; relative to: Zika virus alone): 3.33
CC(C)C[C@H](NC(=O)[C@H](CC(=O)O)NC(=O)CNC(=O)[C@H](CCCNC(=N)N)NC(=O)[C@H](CC(C)C)NC(=O)[C@H](CC(N)=O)NC(=O)[C@@H]1CCCN1C(=O)[C@@H](NC(=O)[C@H](C)NC(=O)[C@H](CC(N)=O)NC(=O)c1ccc(F)cc1)C(C)C)C(=O)N[C@@H](CCC(N)=O)C(=O)N[C@H](C(=O)N[C@@H](CC(C)C)C(=O)N[C@@H](C)C(=O)N[C@@H](CCC(N)=O)C(=O)N[C@@H](CCCCN)C(=O)N[C@H](C(=O)N[C@@H](C)C(=O)N[C@@H](CCCNC(=N)N)C(=O)N[C@H](C(N)=O)[C@@H](C)O)C(C)C)C(C)C [fluorine-18 labelled] — cell-bound radioactivity (BxPC-3; concentration not given, 1 h, pH 7.2, serum-free medium): 9.7 ± 1.2%
QEPKLGSLVVRCSFY — responding donors (human CD4 T cells; AIM; peptide): 9%
CC[C@H](C)[C@H](NC(=O)[C@H](CC(C)C)NC(=O)[C@H](Cc1c[nH]c2ccccc12)NC(=O)[C@H](CCC(N)=O)NC(=O)[C@@H](NC(=O)[C@H](Cc1ccccc1)NC(=O)[C@H](C)NC(=O)[C@H](CCCCNC(=O)COCCOCCNC(=O)COCCOCCNC(=O)CC[C@H](NC(=O)CCCCCCCCCCCCCCCCCCC(=O)O)C(=O)O)NC(=O)[C@H](CCC(N)=O)NC(=O)[C@H](C)NC(=O)[C@@H](NC(=O)[C@H](CCCCN)NC(=O)[C@H](CC(=O)O)NC(=O)[C@H](CC(C)C)NC(=O)C(C)(C)NC(=O)[C@@H](NC(=O)[C@H](CO)NC(=O)[C@H](Cc1ccc(O)cc1)NC(=O)[C@H](CC(=O)O)NC(=O)[C@H](CO)NC(=O)[C@@H](NC(=O)[C@H](Cc1ccccc1)NC(=O)[C@@H](NC(=O)CNC(=O)[C@H](CCC(=O)O)NC(=O)C(C)(C)NC(=O)[C@@H](N)Cc1ccc(O)cc1)[C@@H](C)O)[C@@H](C)O)[C@@H](C)CC)[C@@H](C)CC)C(C)C)C(=O)N[C@@H](C)C(=O)NCC(=O)NCC(=O)N1CCC[C@H]1C(=O)N[C@@H](CO)C(=O)N[C@@H](CO)C(=O)NCC(=O)N[C@@H](C)C(=O)N1CCC[C@H]1C(=O)N1CCC[C@H]1C(=O)N1CCC[C@H]1C(=O)N[C@@H](CO)C(N)=O — steady-state CL/F (human, plasma; subcutaneous, once weekly, multiple dose): 0.933 mL/min
COC(=O)Nc1nc2ccc(C(=O)c3cccs3)cc2[nH]1 — IC50 (HEK293T; reporter gene, firefly luciferase; 24 h, added: Marburg VP24): < 5000 nM
CC(C)C[C@H](NC(=O)[C@H](CC(=O)O)NC(=O)CNC(=O)[C@H](CCCNC(=N)N)NC(=O)[C@H](CC(C)C)NC(=O)[C@H](CC(N)=O)NC(=O)[C@@H]1CCCN1C(=O)[C@@H](NC(=O)[C@H](C)NC(=O)[C@H](CC(N)=O)NC(=O)CCOCCOCCOCCOCCOCCOCCOCCOCCOCCOCCOCCOCCOCCOCCOCCOCCOCCOCCOCCOCCOCCOCCOCCOCCOCCOCCOCCOCCNC(=O)CCOCCOCCOCCOCCOCCOCCOCCOCCOCCOCCOCCOCCOCCOCCOCCOCCOCCOCCOCCOCCOCCOCCOCCOCCOCCOCCOCCOCCNC(=O)c1ccc(F)cc1)C(C)C)C(=O)N[C@@H](CCC(N)=O)C(=O)N[C@H](C(=O)N[C@@H](CC(C)C)C(=O)N[C@@H](C)C(=O)N[C@@H](CCC(N)=O)C(=O)N[C@@H](CCCCN)C(=O)N[C@H](C(=O)N[C@@H](C)C(=O)N[C@@H](CCCNC(=N)N)C(=O)N[C@H](C(N)=O)[C@@H](C)O)C(C)C)C(C)C [fluorine-18 labelled] — cell-bound radioactivity (DX3puroβ6; concentration not given, 1 h, pH 7.2, serum-free medium): 38.5 ± 1.7%
VYYPDKVFRSSVLHS — responding donors (human CD4 T cells; AIM; peptide): 15%
CC[C@H](C)[C@H](NC(=O)[C@H](CC(C)C)NC(=O)[C@H](CO)NC(=O)[C@H](Cc1c[nH]cn1)NC(=O)[C@@H](NC(=O)[C@H](CC(C)C)NC(=O)[C@H](CO)NC(=O)[C@@H](NC(=O)[C@H](Cc1ccc(O)cc1)NC(=O)[C@H](CC(N)=O)NC(=O)[C@H](CC(N)=O)NC(=O)[C@@H](NC(=O)[C@H](CCC(=O)O)NC(=O)[C@H](CCCNC(=N)N)NC(=O)[C@H](CC(=O)O)NC(=O)[C@H](Cc1c[nH]c2ccccc12)NC(=O)[C@H](CCC(=O)O)NC(=O)[C@H](CCSC)NC(=O)[C@H](Cc1c[nH]c2ccccc12)NC(C)=O)[C@@H](C)CC)[C@@H](C)O)[C@@H](C)CC)C(=O)N[C@@H](CCC(=O)O)C(=O)N[C@@H](CCC(=O)O)C(=O)N[C@@H](CO)C(=O)N[C@@H](CCC(N)=O)C(=O)N[C@@H](CC(N)=O)C(=O)N[C@@H](CCC(N)=O)C(=O)N[C@@H](CCC(N)=O)C(=O)N[C@@H](CCC(=O)O)C(=O)N[C@@H](CCCCN)C(=O)N[C@@H](CC(N)=O)C(=O)N[C@@H](CCC(=O)O)C(=O)N[C@@H](CCC(N)=O)C(=O)N[C@@H](CCC(=O)O)C(=O)N[C@@H](CC(C)C)C(=O)N[C@@H](CC(C)C)C(=O)NCC(=O)N[C@@H](CO)C(=O)NCC(=O)N[C@@H](CSCC(=O)O[C@H]1CC[C@@]2(C)C(=CC[C@H]3[C@@H]4CC[C@H]([C@H](C)CCCC(C)(C)O)[C@@]4(C)CC[C@@H]32)C1)C(N)=O — Kd (human PBMCs; membrane binding, di-8-ANEPPS dipole potential): 250 ± 20 nM
EIYQAGSTPCNGVEG — responding donors (human CD4 T cells; AIM; peptide): 8%
CCc1c2c(nc3ccc(O)cc13)-c1cc3c(c(=O)n1C2)COC(=O)[C@]3(O)CC — IC50 (NCI-H929; cell proliferation; 72 h): 2.93 nM
LLWPVTLACFVLAAV — responding donors (human CD4 T cells; AIM; peptide): 17%
O=C1CCC(N2C(=O)c3cccc4c(Cc5cnn(C6CCN(C(=O)C7(O)CCC7)CC6)c5)ccc2c34)C(=O)N1 (stereo not shown) — IC50 (NCI-H929; cell proliferation; 72 h): 0.007 nM
LQPELDSFKEELDKY — responding donors (human CD4 T cells; AIM; peptide): 7%
CN(C)CCCN1c2ccccc2Sc2ccc(Cl)cc21 — IC50 (A2780; cell growth or viability, neutral red; dark): 194000 nM
O=C1CCC(N2C(=O)c3cccc4c(Cc5cnn(C6CCNCC6)c5)ccc2c34)C(=O)N1 (stereo not shown) — IC50 (NCI-H929; cell proliferation; 72 h): 0.467 nM
YFTSDYYQLYSTQLS — responding donors (human CD4 T cells; AIM; peptide): 8%
CCCCN(CCCNC(=O)c1cc(Nc2ccc(OC)c(OC)c2)nc2ccccc12)Cc1ccccc1 — AC50 (SARS-CoV-2; cytopathic effect, cell-based CPE; USA_WA1/2020; round 2, 5-point dilution): 10000 nM
CCOP(=O)(OCC)Oc1ccc([N+](=O)[O-])cc1 — lowest effective concentration (THP-1 macrophages; 2-AG and PG-G hydrolysis, inhibitor; 30 min pretreatment): 100 nM
Cn1cnc(Cn2c(=O)[nH]/c(=N\c3cc4cn(C)nc4cc3Cl)n(Cc3cc(F)c(F)cc3F)c2=O)n1 — patients with TEAE (human, moderate severity, any TEAE; oral, 375 mg): 6.3%
Nc1cccc2c1CN(C1CCC(=O)NC1=O)C2=O (stereo not shown) — IC50 (NCI-H929; cell proliferation; 72 h): 68 nM
CCOC(=O)CN[C@@H](C(=O)N1CC[C@H]1C(=O)NCc1ccc(/C(N)=N\O)cc1)C1CCCCC1 — inhibition (rep main protease; reporter gene (Gaussia luciferase), inhibitor; 20 µM): 1.36%
AVITREVGFVVPGLP — responding donors (human CD4 T cells; AIM; peptide): 9%
COc1cc2cc(c1Cl)N(C)C(=O)C[C@H](OC(=O)[C@H](C)N(C)C(=O)CCS)[C@]1(C)O[C@H]1[C@H](C)[C@@H]1C[C@@](O)(NC(=O)O1)[C@H](OC)/C=C/C=C(\C)C2 — IC50 (NCI-H929; cell proliferation; 72 h): 0.842 nM
Nc1ncnc2c([C@@H]3N[C@H](CO)[C@@H](O)[C@H]3O)c[nH]c12 — inhibition (Marburg virus; viral replication; HeLa, Musoke; 200 µM): 99%
NHTKKWKYPQVNGLT — responding donors (human CD4 T cells; AIM; peptide): 9%
CC[C@H](C)[C@@H]([C@@H](CC(=O)N1CCC[C@H]1[C@H](OC)[C@@H](C)C(=O)N[C@H](C)[C@@H](O)c1ccccc1)OC)N(C)C(=O)[C@@H](NC(=O)[C@@H](NC)C(C)C)C(C)C — IC50 (PBMC; cytotoxicity): 98.2 nM
C[C@@H]1O[C@@H](O[C@H]2CC[C@]3(C=O)[C@H]4CC[C@]5(C)[C@@H](C6=CC(=O)OC6)CC[C@]5(O)[C@@H]4CC[C@]3(O)C2)[C@H](O)[C@H](O)[C@H]1O — MyBP-C level change (human iPSC cardiomyocytes; plate-normalised; concentration not given, hit retest; relative to: vehicle controls, SDs below control): 13.3 SD
CC[C@@]1(O)C(=O)OCc2c1cc1n(c2=O)Cc2c-1nc1cc(F)c(C)c3c1c2[C@@H](NC(=O)CO)CC3 — IC50 (PBMC; cytotoxicity): 25.6 nM
Cc1ccc(C(C)Nc2nc(N3CCNCC3)nc3ccccc23)cc1 (stereo not shown) — AC50 (SARS-CoV-2; cytopathic effect, cell-based CPE; USA_WA1/2020; round 2, 5-point dilution): 5010 nM

Some of these lines once more:
COc1cc2cc(c1Cl)N(C)C(=O)C[C@H](OC(=O)[C@H](C)N(C)C(=O)CCS)[C@]1(C)O[C@H]1[C@H](C)[C@@H]1C[C@@](O)(NC(=O)O1)[C@H](OC)/C=C/C=C(\C)C2 — IC50 (NCI-H929; cell proliferation; 72 h): 0.842 nM
CCc1c2c(nc3ccc(O)cc13)-c1cc3c(c(=O)n1C2)COC(=O)[C@]3(O)CC — IC50 (NCI-H929; cell proliferation; 72 h): 2.93 nM
CC(C)(F)C[C@H](N[C@@H](c1ccc(-c2ccc(S(C)(=O)=O)cc2)cc1)C(F)(F)F)C(=O)NC1(C#N)CC1 — inhibition (rep main protease; reporter gene (Gaussia luciferase), inhibitor; 20 µM): -0.175%
O=C1CCC(N2C(=O)c3cccc4c(Cc5cnn(C6CCN(C(=O)C7(O)CCC7)CC6)c5)ccc2c34)C(=O)N1 (stereo not shown) — IC50 (NCI-H929; cell proliferation; 72 h): 0.007 nM
